Earlier results that unrelated publications cite.
Protocols differ between the studies behind these lines. ± marks the error that the study gave.
Sequence of UniProt P50406 (whole entry, looked up): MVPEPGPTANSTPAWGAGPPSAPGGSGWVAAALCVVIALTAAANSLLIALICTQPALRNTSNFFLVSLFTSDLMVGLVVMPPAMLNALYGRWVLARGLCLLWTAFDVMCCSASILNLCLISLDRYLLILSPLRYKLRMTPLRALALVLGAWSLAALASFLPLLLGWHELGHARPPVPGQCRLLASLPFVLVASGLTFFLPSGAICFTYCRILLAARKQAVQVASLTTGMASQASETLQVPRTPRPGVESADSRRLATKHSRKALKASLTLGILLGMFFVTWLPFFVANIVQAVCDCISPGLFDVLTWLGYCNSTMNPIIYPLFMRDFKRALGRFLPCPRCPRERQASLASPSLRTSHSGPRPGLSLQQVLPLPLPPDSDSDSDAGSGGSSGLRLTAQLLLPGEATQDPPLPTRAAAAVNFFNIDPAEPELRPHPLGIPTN
Sequence of UniProt P21554 (whole entry, looked up): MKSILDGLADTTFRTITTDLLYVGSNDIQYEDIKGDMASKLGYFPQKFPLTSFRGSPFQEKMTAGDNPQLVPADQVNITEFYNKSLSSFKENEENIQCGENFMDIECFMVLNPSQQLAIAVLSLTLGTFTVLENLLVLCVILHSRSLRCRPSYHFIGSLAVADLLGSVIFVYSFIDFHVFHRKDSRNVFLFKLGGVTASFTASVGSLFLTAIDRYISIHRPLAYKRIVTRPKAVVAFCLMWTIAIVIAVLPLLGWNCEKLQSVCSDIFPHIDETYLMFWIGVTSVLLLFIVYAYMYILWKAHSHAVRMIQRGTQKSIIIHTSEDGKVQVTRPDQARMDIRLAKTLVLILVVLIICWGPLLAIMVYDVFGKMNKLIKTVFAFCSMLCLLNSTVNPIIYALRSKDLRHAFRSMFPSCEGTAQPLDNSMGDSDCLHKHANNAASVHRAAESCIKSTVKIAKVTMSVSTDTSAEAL
Sequence of UniProt P35462 (whole entry, looked up): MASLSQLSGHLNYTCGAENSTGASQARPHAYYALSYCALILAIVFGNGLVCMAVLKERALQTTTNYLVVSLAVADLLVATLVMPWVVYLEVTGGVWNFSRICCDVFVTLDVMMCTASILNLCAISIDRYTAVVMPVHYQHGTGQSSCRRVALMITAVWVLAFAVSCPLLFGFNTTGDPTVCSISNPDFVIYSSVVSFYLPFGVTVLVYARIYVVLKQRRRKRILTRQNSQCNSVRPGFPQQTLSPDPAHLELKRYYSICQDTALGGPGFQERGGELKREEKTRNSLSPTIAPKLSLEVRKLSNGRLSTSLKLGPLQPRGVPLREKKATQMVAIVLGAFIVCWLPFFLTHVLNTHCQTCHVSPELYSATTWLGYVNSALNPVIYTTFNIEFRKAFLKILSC

Structure (SMILES) | tested on | assay | system | setting | scale | quantity | result
N[C@@H](Cc1ccc(N(CCCl)CCCl)cc1)C(=O)O | HGF, HPC, HPLF normal cells |  |  |  |  | CC50 | > 200 µM
CCNc1nc(Cl)nc(NC(C)C)n1 | Daphnia magna |  | neonates | 48 h |  | LC50 | 78.8 µM
COc1ccc(CN(C(=O)[C@@H](N)Cc2c(C)cc(C(N)=O)cc2C)[C@@H](C)c2nc(-c3ccccc3)c[nH]2)cc1C(=O)O |  |  | rat | intravenous, 10 mg/kg, body weight 0.25 kg |  | total clearance | 11.1 mL/min
Cc1ccc(OC(C)(C)C(=O)N[C@@H](C)[C@@H](Cc2ccc(OCCF)cc2)c2cccc(C#N)c2)nc1 [fluorine-18 labelled] | Cannabinoid receptor 1 (CNR1, Homo sapiens, UniProt P21554) | PET | human, thalamus |  |  | VT | 12.6 ± 7.6 mL/cm³
C=CCN(CC=C)CCc1c[nH]c2ccc(OC)cc12 | 5-hydroxytryptamine receptor 6 (HTR6, Homo sapiens, UniProt P50406) |  |  |  |  | Ki | 0.153 µM
CO[C@H]1/C=C/O[C@@]2(C)Oc3c(C)c(O)c4c(O)c(c(/C=N/N5CCN(C6CCCC6)CC5)c(O)c4c3C2=O)NC(=O)/C(C)=C\C=C\[C@H](C)[C@H](O)[C@@H](C)[C@@H](O)[C@@H](C)[C@H](OC(C)=O)[C@@H]1C |  |  | caseum | 5 µM, 4 h, 37 °C |  | unbound fraction | 0.5 ± 0.1%
COc1ccc2c(c1)[C@]13CCCC[C@@H]1[C@H](C2)N(C)CC3 | CYP2D6 | substrate | healthy subjects, fed | oral, 30 mg, added: simeprevir 150 mg | baseline: with over without simeprevir | AUClast ratio | 1.08
Cn1nnc(-c2ccc(-c3ccc(N4C[C@H](CO)OC4=O)cc3F)cn2)n1 |  |  | caseum | 5 µM, 4 h, 37 °C |  | unbound fraction | 8.8 ± 1.8%
O=[P@]1(S)OC[C@H]2O[C@@H](n3cnc4cc(Cl)c(Cl)cc43)[C@H](O)[C@@H]2O1 | PDE1C | cyclic nucleotide hydrolysis, substrate or inhibitor, isothermal titration calorimetry |  |  |  | Km or Ki | 55.8 µM
CC(=O)NNC(=O)c1ccncc1 |  |  | caseum | 5 µM, 4 h, 37 °C |  | unbound fraction | > 99.9%
CC1=C(/C=C/C(C)=C/C=C/C(C)=C/C(=O)Nc2ccc(O)cc2)C(C)(C)CCC1 |  |  | human, chemoprevention | 100 to 400 mg daily |  | plasma concentration | ≤ 3000 nM
Cc1cc(N)c2c(OCC(C)(C)C(=O)NC(C)C)cccc2n1 | Salmonella enterica Typhimurium |  | TA98 and TA100 | concentration not given, with and without S9 |  | Ames test | negative
Cc1ncc2n1-c1ccc(Cl)cc1C(c1ccccc1F)=NC2 | CYP3A hepatic | refers to: parent to 1-hydroxy metabolite ratio | human | intravenous, 0.025 mg/kg, added: simeprevir 150 mg | baseline: with over without simeprevir | metabolic ratio | 1.01
C=CCN(CC=C)CCc1c[nH]c2ccccc12 | D(3) dopamine receptor (DRD3, Homo sapiens, UniProt P35462) | binding | cloned human receptor | added: [3H]N-methylspiperone |  | Ki | 0.672 µM

Repeated from above:
Structure (SMILES) | tested on | assay | system | setting | scale | quantity | result
Cc1cc(N)c2c(OCC(C)(C)C(=O)NC(C)C)cccc2n1 | Salmonella enterica Typhimurium |  | TA98 and TA100 | concentration not given, with and without S9 |  | Ames test | negative
